{"data": "Measured values of several laboratories"}
{"Structure (SMILES)": "CN(CC(=O)N(Cc1ccc(C2CCCCC2)cc1)c1ccc(C(=O)O)cc1)S(=O)(=O)c1c(F)c(F)c(F)c(F)c1F", "test system": "mouse, plasma", "conditions": "intravenous, 5 mg/kg", "Cmax": "124 ng/mL"}
{"Structure (SMILES)": "CCCCCCCCCCCCCCCC(=O)NCCCC[C@H](NC(=O)[C@H](CCCNC(=N)N)NC(=O)[C@H](Cc1ccc(O)cc1)NC(=O)[C@H](CC(C)C)NC(=O)[C@H](CCCNC(=N)N)NC(=O)CNS(=O)(=O)c1ccc(N)cc1)C(N)=O", "test system": "CD-1 mouse, plasma", "conditions": "intraperitoneal, 4 mg/kg, single dose", "Cmax": "3460 ng/mL"}
{"Structure (SMILES)": "CS(C)(=O)=Nc1ccc(-c2ccc(-c3nc4cc(O[C@@H]5CO[C@H]6[C@@H]5OC[C@H]6O)[nH]c4cc3F)cc2)cc1", "test system": "female C57BL/6 mouse, plasma", "conditions": "oral, 10 mg/kg", "Cmax": "1560 ng/mL"}
{"Structure (SMILES)": "COc1ccc(F)cc1S(=O)(=O)Nc1cnc2c(c1)C(=O)NCCO2", "test system": "male C57BL/6 mouse, plasma", "conditions": "oral, 1 mg/kg, single dose", "Cmax": "176 ng/mL"}
{"Structure (SMILES)": "CCCCCCCC(=O)NC[C@H](NC(=O)[C@H](CO)NC(=O)CN)C(=O)N[C@@H](Cc1ccccc1)C(=O)N[C@@H](CC(C)C)C(=O)N[C@@H](CO)C(=O)N1CCC[C@H]1C(=O)N[C@@H](CCC(=O)O)C(=O)N[C@@H](Cc1c[nH]cn1)C(=O)N[C@@H](CCC(N)=O)C(=O)N[C@@H](CCCNC(=N)N)C(=O)N[C@H](C(=O)N[C@@H](CCC(N)=O)C(=O)N[C@H](C(=O)N[C@@H](CCCNC(=N)N)C(=O)N1CCC[C@H]1C(=O)N1CCC[C@H]1C(=O)N[C@@H](Cc1c[nH]cn1)C(=O)N[C@@H](CCCCN)C(=O)N[C@@H](C)C(=O)N1CCC[C@H]1C(=O)N[C@@H](Cc1c[nH]cn1)C(=O)N[C@H](C(=O)N[C@H](C(=O)O)C(C)C)C(C)C)C(C)C)C(C)C", "test system": "mouse, plasma", "conditions": "intraperitoneal, 7.2 mg/kg", "Cmax": "588 ng/mL"}
{"Structure (SMILES)": "CC(C)[C@H]1NC(=O)C[C@H]2/C=C/CCSSC[C@@H](NC1=O)C(=O)N[C@H](Cc1cccc3ccccc13)C(=O)NCC(=O)O2", "test system": "nude mouse, blood", "conditions": "oral, 24 mg/kg", "Cmax": "7.11 ng/mL"}
{"Structure (SMILES)": "C[C@@](O)(C(F)F)[C@H](NC(=O)c1ccc(C#CC#CC2CC2)cc1)C(=O)NO", "test system": "mouse, plasma", "conditions": "intraperitoneal, 40 mg/kg", "Cmax": "17900 ng/mL"}
{"Structure (SMILES)": "CCCCCCCC(=O)OC[C@H](NC(=O)[C@H](CO)NC(=O)CN)C(=O)N[C@@H](Cc1ccccc1)C(=O)N[C@@H](CC(C)C)C(=O)N[C@@H](CO)C(=O)N1CCC[C@H]1C(=O)N[C@@H](CCC(=O)O)C(=O)N[C@@H](Cc1cnc[nH]1)C(=O)N[C@@H](CCC(N)=O)C(=O)N[C@@H](CCCNC(=N)N)C(=O)N[C@H](C(=O)N[C@@H](CCC(N)=O)C(=O)N[C@@H](CCC(N)=O)C(=O)N[C@@H](CCCNC(=N)N)C(=O)N[C@@H](CCCCN)C(=O)N[C@@H](CCC(=O)O)C(=O)N[C@@H](CO)C(=O)N[C@@H](CCCCN)C(=O)N[C@@H](CCCCN)C(=O)N1CCC[C@H]1C(=O)N1CCC[C@H]1C(=O)N[C@@H](C)C(=O)N[C@@H](CCCCN)C(=O)N[C@@H](CC(C)C)C(=O)N[C@@H](CCC(N)=O)C(=O)N1CCC[C@H]1C(=O)N[C@@H](CCCNC(=N)N)C(=O)O)C(C)C", "test system": "mouse, plasma", "conditions": "intraperitoneal, 1.2 mg/kg", "Cmax": "7.5 ng/mL"}
{"Structure (SMILES)": "C/C(=N\\OCCCN1CCCCC1)c1ccc(C(F)(F)F)cc1", "test system": "mouse, plasma", "conditions": "oral, 10 mg/kg", "Cmax": "200 ng/mL"}
{"Structure (SMILES)": "O=c1cc(-c2ccccc2)oc2c(Br)c(O)c(O)c(O)c12", "test system": "C57BL/6 mouse, plasma", "conditions": "oral, 150 mg/kg, single dose", "Cmax": "1100 ng/mL"}
{"note": "For quick reference, copied from above:"}
{"Structure (SMILES)": "CS(C)(=O)=Nc1ccc(-c2ccc(-c3nc4cc(O[C@@H]5CO[C@H]6[C@@H]5OC[C@H]6O)[nH]c4cc3F)cc2)cc1", "test system": "female C57BL/6 mouse, plasma", "conditions": "oral, 10 mg/kg", "Cmax": "1560 ng/mL"}
